Experimental data of several laboratories.
Parts stem from different laboratories: compare values within a part only. Substitutions count along the parent as printed.

Block 1
Target: RING finger protein unkempt homolog, zinc fingers 1-6, GST-SBP tag (UNK, Homo sapiens, UniProt Q9C0B0, residues 30-357)
Sequence of UniProt Q9C0B0 (30-357, looked up): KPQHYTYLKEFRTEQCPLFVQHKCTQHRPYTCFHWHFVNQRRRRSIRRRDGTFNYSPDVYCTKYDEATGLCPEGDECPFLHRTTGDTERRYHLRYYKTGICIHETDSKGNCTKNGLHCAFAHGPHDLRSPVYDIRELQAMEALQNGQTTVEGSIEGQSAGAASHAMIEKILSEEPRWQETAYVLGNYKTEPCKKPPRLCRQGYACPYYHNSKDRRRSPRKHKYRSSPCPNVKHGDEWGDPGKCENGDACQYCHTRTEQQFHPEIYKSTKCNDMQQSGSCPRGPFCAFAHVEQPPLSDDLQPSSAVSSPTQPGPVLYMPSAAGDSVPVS
Method: RNA Bind-n-Seq
Form: RNA
Medium: in vitro
Concentration: not given
Notes: RNA with constant flanks, human-mouse chimeric sites, ends assumed
Relative to: input RNA pool
Direction: higher = stronger binding
Oligonucleotide	bound/input enrichment [ratio]
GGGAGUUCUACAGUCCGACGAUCUCUUAACUUAUUCAUUUAACUUAUUUUUAUAGCUAGAUAAAUAUUGUUAGUCUUAGACAAUAGCUCACAUUUUUUGAAAAGCAUGCUCUCCCUGUCCAUUUGUCUUACAAUAACACUCAGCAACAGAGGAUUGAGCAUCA	27.2
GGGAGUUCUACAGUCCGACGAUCGAGUCGAGCAAACUUGAAACAAUUCGUUAUCUUGCAGCCUCAGUGUUCACUUGCUUGGCGAUAGCAUAUUGGGAUUUUAUAGAUUCUAAGGAGAACUGACGAUGAUGCUGCCGCUGCUGCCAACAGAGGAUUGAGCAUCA	0.448
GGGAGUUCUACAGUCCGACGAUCUGUGAACUGUCUCUUGAGAUCUAAAAAAAACAUGAUUUUUCCUGGCACAUAUUCCAAAGCAAAGACUUUGUUGCCUGCUGCUUAUUGUCUAAUUUACAGGGAUAUUUAAUUUUGUCAGGUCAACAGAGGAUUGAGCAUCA	0.25
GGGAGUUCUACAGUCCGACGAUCCCACCAGGAUCCCAGAAACAUGACCCUUGCAGCCUAUAAAGAGAAGAUGAAGGAGCUCCCGCUGGUGUCCUUGUUCUGCUCCUGCUUCCUGGCCGAUCCCCUGAAUAAGUCGUCCUACAACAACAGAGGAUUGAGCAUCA	0.211
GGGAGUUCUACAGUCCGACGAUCUAAAUUAGGGCUGCCGUUUUCUGUUUCUCCCUGGGCUGCGGAAAGCCAGAAGAUUUUAUCUAGCUUAAACCAGGCUGCUGGUGUUCCCUCCCUCCCGCCACGAGGGUGUUUUUGGCUGCACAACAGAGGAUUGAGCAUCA	0.683
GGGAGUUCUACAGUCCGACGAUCAAAGAGAAACUAAAGCAACUAAUAGAGAAGAGGAUUGGGCAAAGAGAUUUCAUAGAGAAACUAGGAUUUAUUAGCAAACAUGAGUUAUAUUCCAGAGGCAUCUCAGAACCCCAGCCAAACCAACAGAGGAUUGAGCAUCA	6.62
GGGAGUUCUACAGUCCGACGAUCGACCCACAGUGGUCUGAGGAGCAACUCAUUGCUGCAAAAUUCUGUUUUGCUGGCCUUGUUAUAGGGCAGACUGAAGUGGAUAUCAUGAGUCAUGCCACACAAGCUAUUUUUGAAAUUCUGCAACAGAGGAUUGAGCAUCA	0.201
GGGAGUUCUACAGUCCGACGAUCUCUUUAAAAAAAAAAUUACCUUUUCUGACAGUGCUUUCCCUCCCAUAGAUCCACGUUCAAGCUCAAAGAGCAAAGGCUUUGCACGGAGCUCAAACAUAAAAGAAAGAAAGAUUUCUGAGACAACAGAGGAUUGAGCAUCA	0.636
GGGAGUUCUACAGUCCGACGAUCUCUUUAAAAAAAAAAUUACCUUUUCUGCAUAUUAUAGCCCUCCCAUAGAUCCACGUUCAAGCUCAAAGAGCAAAGGCUCCGCAAACAGCUCAAACAUCUGAUGAAGAAAGAUUUCUGAGACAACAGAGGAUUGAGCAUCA	3.15
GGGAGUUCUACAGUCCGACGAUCAAAGAAAAUGGAGAUGUAAAGAUUUUGCUGAAAAGUGGGAAGGAGAAACCAAAAACAAAUAUAGAAGACUUACAAAUUAAAAAAGUAAAGAAGAAAAAGAAAAAGAAACACAAAGAGAAUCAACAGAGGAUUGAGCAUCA	14.9
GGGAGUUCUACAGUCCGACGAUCGAGUCGAUUAUGGAAACAACAAUUCGUUAUCUUGCAGCCUCAGUGUUCACUUGCUUGGCGAUAGCAUUGGGGUUUUAUAGGUUCUGGAAGGAGAACUGACGAUGAUGCUGCCGCUGCUGCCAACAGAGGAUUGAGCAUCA	0.2

Block 2
Target: CEBPD, bZIP domain (human)
Method: DHFR protein complementation
Medium: yeast
Notes: single substitutions, most at no-binding floor
Relative to: wild-type JUN-FOS pair
Direction: higher = stronger binding
Starting sequence: JUN, bZIP domain (human); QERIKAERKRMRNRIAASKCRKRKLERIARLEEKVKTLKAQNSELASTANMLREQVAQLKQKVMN; partner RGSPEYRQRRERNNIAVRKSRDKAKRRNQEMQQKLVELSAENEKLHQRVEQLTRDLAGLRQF
Change	binding fitness [natural log]
E33R	-1.36
E44L	-1.39
R30W	-1.36
K39T	-1.28
S43G	-1.41
A46F	-1.32
K36C	-1.28
V56L	-1.39
M51R	-1.34
L31Y	-1.33
A49F	-1.45
Q55A	-1.45
L38S	-1.49
A40G	-1.45
T37M	-1.14
A49R	-1.33
I28H	-1.27

Block 3
Target: UBE2G1 UBC core domain (UniProt P62253)
Method: yeast two-hybrid
Medium: yeast
Notes: mostly zero background
Relative to: not given
Direction: higher = stronger interaction
B1: ZNF598 RING domain (UniProt Q86UK7); chain AAAPERGGGSCVLCCGDLEATALGRCDHPVCYRCSTKMRVLCEQRYCAVCREELRQVVFGK
B2: PHF21A RING domain (UniProt Q96BD5); chain SPTSTDGDIHEDFCSVCRKSGQLLMCDTCSRVYHLDCLDPPLKTIPKGMWICPRCQDQMLKKEEAIPW
B3: RNF170 RING domain (UniProt Q96K19); chain TRQQFYTDMYCPICLHQASFPVETNCGHLFCGACIIAYWRYGSWLGAISCPICRQTVTLLLTVF
B4: CUL9 RING domain (UniProt Q8IWT3); chain AQAVPVRPDHCPVCVSPLGCDDDLPSLCCMHYCCKSCWNEYLTTRIEQNLVLNCTCPIADCPAQPTGAFIR
B5: TRIM63 RING domain (UniProt Q969Q1); chain PMENLEKQLICPICLEMFTKPVVILPCQHNLCRKCANDIFQAANPYWTSRGSSVSMSGGRFRCPTCRHEVIMDRHGV
Target sequence (chain): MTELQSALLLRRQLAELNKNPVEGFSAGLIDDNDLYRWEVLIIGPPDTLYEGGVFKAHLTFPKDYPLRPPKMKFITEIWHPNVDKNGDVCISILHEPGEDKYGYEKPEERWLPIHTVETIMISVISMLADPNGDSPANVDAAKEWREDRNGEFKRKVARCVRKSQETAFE
Molecule	lacZ reporter activity
VTLSLTLPITCHICLGKVRQPVICINNHVFCSICIDLWLKNNSQCPACRVPITPENPCK (OBI1 RING domain (UniProt Q5W0B1))	0
B1 (ZNF598 RING domain)	0
B2 (PHF21A RING domain)	0
B3 (RNF170 RING domain)	0
YWAMDSTFELCKICAESNKDVKIEPCGHLLCSCCLAAWQHSDSQTCPFCRCEIKGWEAVS (CBLC RING domain (UniProt Q9ULV8))	0
DAIPSLSECQCGICMEILVEPVTLPCNHTLCKPCFQSTVEKASLCCPFCRRRVSSWTRYH (RNF168 RING domain (UniProt Q8IYW5))	0
B4 (CUL9 RING domain)	0
PEELQAMDNVCIICREEMVTGAKRLPCNHIFHTSCLRSWFQRQQTCPTCRMDVLRASLPA (SYVN1 RING domain (UniProt Q86TM6))	0
QLRRLQEERTCKVCMDKEVSIVFIPCGHLVVCKDCAPSLRKCPICRSTIKGTVRTF (BIRC3 RING domain (UniProt Q13489))	0
B5 (TRIM63 RING domain)	0

Block 4
Target: CCNB1, cyclin fold, Cln2 fusion (human)
Method: yeast growth competition, sequencing
Medium: yeast
Notes: strong parent motif
Relative to: not given
Direction: higher = stronger binding
Starting sequence: DNAH7 docking peptide (human); HELFQRLDFDNDG; partner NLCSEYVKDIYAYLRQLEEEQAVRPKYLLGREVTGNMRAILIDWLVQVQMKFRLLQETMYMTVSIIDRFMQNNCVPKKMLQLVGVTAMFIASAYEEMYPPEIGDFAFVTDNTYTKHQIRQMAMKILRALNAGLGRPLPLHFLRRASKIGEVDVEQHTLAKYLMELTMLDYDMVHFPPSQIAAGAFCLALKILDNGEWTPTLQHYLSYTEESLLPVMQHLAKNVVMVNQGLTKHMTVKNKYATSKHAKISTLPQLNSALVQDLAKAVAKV
Change	normalised enrichment score
L7A	-0.348
D12A	1.52
E2A	2.03
F9A	0.51
N11A	1.91
R6A	1.13
Q5A	1.7

Block 5
Target: Histone acetyltransferase KAT6A, winged helix 2, GST fusion (KAT6A, Homo sapiens, UniProt Q92794, residues 85-181)
Method: protein binding microarray
Form: double-stranded DNA, one strand shown
Medium: in vitro
Concentration: not given
Notes: 8-mer, flanks averaged, mean of 2 arrays, mostly near background
Relative to: not given
Direction: higher = stronger binding
Target sequence (chain): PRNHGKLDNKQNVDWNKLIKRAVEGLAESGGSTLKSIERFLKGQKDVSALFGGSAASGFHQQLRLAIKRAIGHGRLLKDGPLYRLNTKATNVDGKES
Oligonucleotide	E-score
CGTCTTAG	-0.143
ACCCCTGA	-0.00517
CGGCGACC	0.169
GAACCATC	-0.0559
AAGAGAAC	-0.134
ATTTAGCG	-0.0234
CCGTCCAG	0.0326
CGCTCCCA	0.01
ATGTACCC	-0.196
GACTACGC	-0.0498
AGCGGCGA	0.226
ACCTACAG	-0.05
CGCGGTTA	0.0848
CAGACTTC	-0.193
AAATAATT	0.236
GGCCGGAA	0.177
AGTGAATC	-0.0513
CATTGGGA	-0.134
ACATACAT	-0.174
AAGCGTGT	-0.0754
TTACCCAA	-0.181
CGGCAACG	0.0274
AAATAAGG	-0.00645
AGGGGTTG	-0.164
ATCAAAGA	0.121

Block 6
Target: RNA binding protein fox-1 homolog 2, RRM domain, GST-SBP tag (RBFOX2, Homo sapiens, UniProt O43251-10, residues 100-194)
Method: RNA Bind-n-Seq
Form: RNA
Medium: in vitro
Concentration: 365 nM
Notes: natural RNA segment, single round, ends assumed
Relative to: no-protein control
Direction: higher = stronger binding
Residues (chain): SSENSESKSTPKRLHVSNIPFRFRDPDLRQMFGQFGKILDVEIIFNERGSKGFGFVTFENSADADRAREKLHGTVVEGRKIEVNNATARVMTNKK
Oligonucleotide	RBNS enrichment (R)
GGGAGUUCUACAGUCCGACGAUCGGAUUUUACAGAGUUUUUGAGAAUGGGUGUGAUUACUGACUUGAAUUAAAAAAGAAUUUGGAGUUAGAAAGGAGGGGUUGUCAUCUCCUGGAGCUCAUUGAUUAGAAGAUUGGAAUUCUCGGGUGCCAA	0.785
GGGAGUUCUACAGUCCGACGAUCGGCGCCAGCCUGAAGCUGCCAGGCCCUGAGGUUCAGACCCUGGACCCCAUAGCUGGAGGCCUGUGGUGCCAGAAGCCCAGAUUAGGGUGGCUGUCCAUCCCUGGAUAGCUUGGAAUUCUCGGGUGCCAA	0.206
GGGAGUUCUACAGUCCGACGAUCUCCCAACAUGUGAUGACUAUUCUUGGUUGUCAUCUUGAAUACUACUAGGUGAUUAGGCCUAUUGGUAGAUAGCCAUUGUUGAACUACCUGGACCACAAUUUGUAAGCCAUUGGAAUUCUCGGGUGCCAA	0.582
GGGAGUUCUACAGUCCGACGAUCGUGCAGGCAGCUUGGAGUGCAGGCUGUGUUGCUGGGAGUGCGCUGGCUGCUUAGAAACCACGAGACACCACCUCACUUUCCUCUGGCCUCACUGUUUCUGCCAGUCACAUUGGAAUUCUCGGGUGCCAA	0.329
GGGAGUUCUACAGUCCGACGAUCUCUCUCUAAUAUAUCUGAGUUAUUGCUCAUUUAAAACUGUUAAGUCCAGUAUAAUUUUCCCUGAUAUGAAAAAAUGUGCAUUUUUUUCACUUAGCAACAAAGUACCUUCUUGGAAUUCUCGGGUGCCAA	1
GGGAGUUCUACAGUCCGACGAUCUUAUUUUCUUUCUCAGGGUCCUUUCUUUGGUGGGGGUCCACUCCCCGAAAGAUGUUGUCAUUGGCAAUCUGCAGUUGCAAAGGGGGUAGGGUGGUCUCAGAAGGCACGAGUGGAAUUCUCGGGUGCCAA	0.492
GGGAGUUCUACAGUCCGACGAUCAAGCCCCUGGAAAUGCGUGUGACCUGUGAAGUGGUGUAUUGUCACAGUAGCUUAUUUGAACUUGAGACCAUUGUAAGCAUGACCCAACCUACCACCCUGUUUUUACAUAUUGGAAUUCUCGGGUGCCAA	5.01
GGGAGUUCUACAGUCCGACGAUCUGGGAGGAUUGCUUGAGCGCAGGAGGCGGAGGUUGUAGAGCCAAGAUCACACCACUGCACUCCAGCCUGGGUGACAGAGCAAGACCCUGUCUCAAAAAAAAAAAAAAAAAUGGAAUUCUCGGGUGCCAA	0.742
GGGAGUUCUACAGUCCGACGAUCAAAAUGUGACUGACGGGAACAAUUCUUAAACUGAUUAACUAGCUGUAAUAUAGUUUUGUGAAUUUAUUGCACUGAUGUUGUACCUUGUGGUAUAUCUGUCCCUAUUAAAUUGGAAUUCUCGGGUGCCAA	0.463
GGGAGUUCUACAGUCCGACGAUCCUGCAGAUGAAUGGUCAACGCGAGCUAGGUUAGUUAGUGUGAUGUAUAAGGCGCCAUCAUUCCUCAAGUCAAGCCUCCAUCCCAAAGCACCUGGAGCUGUGGCAAUGAUGUGGAAUUCUCGGGUGCCAA	0.736
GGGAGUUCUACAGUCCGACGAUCUUAAUUUAAUGUUUUUUCUUUGUACCUGAUGUGAAUUCUAGCAACCUUUGUUAGGAAAAAGCACAGCCUCAGAUGGAGGCAGCCUAAACUGUGUUCUUGUUUUGUUCAUGUGGAAUUCUCGGGUGCCAA	2.27
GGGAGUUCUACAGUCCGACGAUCGAGAGUUUUUAAUUGUAAAUGCAUACUUGGGAAGGACUUAGAGUUUUAAACUGUUUUUUGCUUUUGCUUUUCCCUGACUCCCUUUGCUUGGAGUCAGCUGCACACCAGUAUGGAAUUCUCGGGUGCCAA	1.12

Excerpt of the above (block 5):
Oligonucleotide	E-score
CGCTCCCA	0.01
ACATACAT	-0.174
GAACCATC	-0.0559
AGTGAATC	-0.0513
AGGGGTTG	-0.164
